Measurements gathered from unrelated publications.
Protocols differ between the studies behind these lines. “And” joins repeats or separate records; there may be more than shown. ± gives the spread as reported.
KISS1R: KiSS-1 receptor (KISS1R, Homo sapiens, UniProt Q969F8)
Sequence of UniProt Q15102 (whole entry, looked up): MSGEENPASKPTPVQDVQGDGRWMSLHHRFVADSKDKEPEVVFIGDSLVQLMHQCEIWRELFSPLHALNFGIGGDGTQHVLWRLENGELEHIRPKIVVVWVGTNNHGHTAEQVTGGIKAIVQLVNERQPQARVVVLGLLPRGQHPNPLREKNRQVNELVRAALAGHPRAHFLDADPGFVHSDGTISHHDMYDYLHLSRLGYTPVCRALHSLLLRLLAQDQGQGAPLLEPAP
Sequence of UniProt Q969F8 (whole entry, looked up): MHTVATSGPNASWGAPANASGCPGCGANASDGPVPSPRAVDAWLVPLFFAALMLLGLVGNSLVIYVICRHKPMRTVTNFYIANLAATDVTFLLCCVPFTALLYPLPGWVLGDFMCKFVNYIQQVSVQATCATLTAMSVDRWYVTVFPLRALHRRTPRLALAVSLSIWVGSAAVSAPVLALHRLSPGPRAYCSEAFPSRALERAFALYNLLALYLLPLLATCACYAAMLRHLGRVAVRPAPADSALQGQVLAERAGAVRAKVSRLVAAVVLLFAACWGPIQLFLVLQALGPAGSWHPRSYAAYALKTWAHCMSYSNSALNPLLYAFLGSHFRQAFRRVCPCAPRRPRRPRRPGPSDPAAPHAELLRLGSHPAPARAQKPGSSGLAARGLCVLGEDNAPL
Sequence of UniProt Q16531 (whole entry, looked up): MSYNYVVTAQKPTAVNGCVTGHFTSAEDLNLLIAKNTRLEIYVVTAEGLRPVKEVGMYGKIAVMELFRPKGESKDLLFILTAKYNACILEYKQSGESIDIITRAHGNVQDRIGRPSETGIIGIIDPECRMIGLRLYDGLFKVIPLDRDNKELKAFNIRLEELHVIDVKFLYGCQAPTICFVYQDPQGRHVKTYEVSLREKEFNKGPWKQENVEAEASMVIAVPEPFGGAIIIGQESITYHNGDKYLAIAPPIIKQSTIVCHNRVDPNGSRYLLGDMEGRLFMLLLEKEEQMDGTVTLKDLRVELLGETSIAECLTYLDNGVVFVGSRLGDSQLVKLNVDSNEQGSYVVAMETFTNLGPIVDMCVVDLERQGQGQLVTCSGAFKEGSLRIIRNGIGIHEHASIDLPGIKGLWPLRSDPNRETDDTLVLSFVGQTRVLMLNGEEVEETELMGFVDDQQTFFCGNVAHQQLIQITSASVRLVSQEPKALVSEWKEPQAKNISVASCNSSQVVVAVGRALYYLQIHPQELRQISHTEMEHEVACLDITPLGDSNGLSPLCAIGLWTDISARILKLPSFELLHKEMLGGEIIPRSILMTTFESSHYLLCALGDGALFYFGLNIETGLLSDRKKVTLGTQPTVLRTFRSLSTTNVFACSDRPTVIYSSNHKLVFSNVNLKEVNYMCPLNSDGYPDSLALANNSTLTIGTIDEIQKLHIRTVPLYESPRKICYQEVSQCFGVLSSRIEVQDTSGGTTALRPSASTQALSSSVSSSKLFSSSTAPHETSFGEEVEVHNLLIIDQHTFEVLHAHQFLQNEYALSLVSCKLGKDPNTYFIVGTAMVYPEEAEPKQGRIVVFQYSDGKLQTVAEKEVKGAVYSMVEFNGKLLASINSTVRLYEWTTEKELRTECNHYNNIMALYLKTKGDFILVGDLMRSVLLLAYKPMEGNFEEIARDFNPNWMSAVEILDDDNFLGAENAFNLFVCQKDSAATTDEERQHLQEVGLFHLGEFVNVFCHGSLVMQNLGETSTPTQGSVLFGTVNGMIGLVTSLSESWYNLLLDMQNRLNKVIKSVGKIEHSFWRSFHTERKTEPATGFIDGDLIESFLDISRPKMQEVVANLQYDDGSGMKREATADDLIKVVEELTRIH
Sequence of UniProt P33534 (whole entry, looked up): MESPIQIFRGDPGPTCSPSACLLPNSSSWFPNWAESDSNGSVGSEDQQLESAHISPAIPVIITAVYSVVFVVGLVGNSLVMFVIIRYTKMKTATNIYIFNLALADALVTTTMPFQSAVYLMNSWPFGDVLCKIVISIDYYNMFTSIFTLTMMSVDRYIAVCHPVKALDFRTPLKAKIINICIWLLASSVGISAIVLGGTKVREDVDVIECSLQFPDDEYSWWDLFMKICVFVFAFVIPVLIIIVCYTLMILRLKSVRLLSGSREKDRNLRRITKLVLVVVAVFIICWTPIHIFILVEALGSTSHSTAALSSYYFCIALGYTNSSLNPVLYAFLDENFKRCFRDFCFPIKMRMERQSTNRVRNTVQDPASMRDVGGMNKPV
Sequence of UniProt Q14164 (whole entry, looked up): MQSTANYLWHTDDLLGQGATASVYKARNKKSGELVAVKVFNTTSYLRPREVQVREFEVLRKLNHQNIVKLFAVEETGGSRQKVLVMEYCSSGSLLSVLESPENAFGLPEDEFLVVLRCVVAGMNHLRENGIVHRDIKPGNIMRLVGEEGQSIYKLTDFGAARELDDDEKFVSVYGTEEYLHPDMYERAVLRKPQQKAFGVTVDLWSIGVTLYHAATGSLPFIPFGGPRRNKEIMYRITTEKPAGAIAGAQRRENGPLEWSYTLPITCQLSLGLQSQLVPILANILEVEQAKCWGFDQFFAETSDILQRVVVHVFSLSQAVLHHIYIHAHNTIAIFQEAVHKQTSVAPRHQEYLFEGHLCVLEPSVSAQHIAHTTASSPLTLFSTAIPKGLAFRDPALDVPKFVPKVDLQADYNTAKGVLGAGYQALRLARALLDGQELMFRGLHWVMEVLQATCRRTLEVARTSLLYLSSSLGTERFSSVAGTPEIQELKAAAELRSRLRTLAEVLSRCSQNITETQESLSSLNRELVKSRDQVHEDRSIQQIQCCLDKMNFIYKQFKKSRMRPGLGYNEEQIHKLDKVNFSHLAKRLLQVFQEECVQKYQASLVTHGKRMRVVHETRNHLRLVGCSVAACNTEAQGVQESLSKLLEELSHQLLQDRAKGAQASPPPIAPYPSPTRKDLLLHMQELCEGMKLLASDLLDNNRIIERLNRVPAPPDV
Sequence of UniProt Q9H2G2 (whole entry, looked up): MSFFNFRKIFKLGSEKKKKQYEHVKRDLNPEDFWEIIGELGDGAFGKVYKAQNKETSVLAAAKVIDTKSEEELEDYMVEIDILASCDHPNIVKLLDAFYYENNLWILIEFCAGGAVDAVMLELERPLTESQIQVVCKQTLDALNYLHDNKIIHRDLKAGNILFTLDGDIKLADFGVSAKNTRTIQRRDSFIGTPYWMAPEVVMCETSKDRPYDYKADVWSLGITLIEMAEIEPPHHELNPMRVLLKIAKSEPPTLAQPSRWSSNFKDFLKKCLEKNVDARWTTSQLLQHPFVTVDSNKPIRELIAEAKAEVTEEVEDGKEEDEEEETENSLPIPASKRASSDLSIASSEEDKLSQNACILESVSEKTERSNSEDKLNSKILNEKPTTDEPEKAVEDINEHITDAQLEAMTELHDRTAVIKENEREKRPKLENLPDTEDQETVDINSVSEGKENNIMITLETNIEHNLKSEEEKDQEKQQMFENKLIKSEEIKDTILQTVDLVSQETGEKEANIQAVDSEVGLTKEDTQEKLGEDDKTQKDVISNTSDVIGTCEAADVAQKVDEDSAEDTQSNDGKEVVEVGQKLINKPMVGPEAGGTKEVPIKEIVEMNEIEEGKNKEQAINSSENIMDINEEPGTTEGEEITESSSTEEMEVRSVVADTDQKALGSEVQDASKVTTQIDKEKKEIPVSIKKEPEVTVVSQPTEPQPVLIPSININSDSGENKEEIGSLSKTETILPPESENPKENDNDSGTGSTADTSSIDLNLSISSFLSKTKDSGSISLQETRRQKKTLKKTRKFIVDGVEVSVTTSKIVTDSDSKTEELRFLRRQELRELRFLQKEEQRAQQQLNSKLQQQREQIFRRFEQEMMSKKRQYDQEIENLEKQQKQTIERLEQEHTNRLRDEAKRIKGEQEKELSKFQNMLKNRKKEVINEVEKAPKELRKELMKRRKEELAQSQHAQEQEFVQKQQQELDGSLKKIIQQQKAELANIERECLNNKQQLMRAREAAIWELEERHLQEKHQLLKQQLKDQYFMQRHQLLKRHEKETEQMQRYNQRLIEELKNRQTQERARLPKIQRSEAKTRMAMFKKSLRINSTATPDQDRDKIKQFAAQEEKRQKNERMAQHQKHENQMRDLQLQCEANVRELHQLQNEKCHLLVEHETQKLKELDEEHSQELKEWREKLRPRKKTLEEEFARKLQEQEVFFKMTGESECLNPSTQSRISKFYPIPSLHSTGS
Sequence of UniProt P28335 (whole entry, looked up): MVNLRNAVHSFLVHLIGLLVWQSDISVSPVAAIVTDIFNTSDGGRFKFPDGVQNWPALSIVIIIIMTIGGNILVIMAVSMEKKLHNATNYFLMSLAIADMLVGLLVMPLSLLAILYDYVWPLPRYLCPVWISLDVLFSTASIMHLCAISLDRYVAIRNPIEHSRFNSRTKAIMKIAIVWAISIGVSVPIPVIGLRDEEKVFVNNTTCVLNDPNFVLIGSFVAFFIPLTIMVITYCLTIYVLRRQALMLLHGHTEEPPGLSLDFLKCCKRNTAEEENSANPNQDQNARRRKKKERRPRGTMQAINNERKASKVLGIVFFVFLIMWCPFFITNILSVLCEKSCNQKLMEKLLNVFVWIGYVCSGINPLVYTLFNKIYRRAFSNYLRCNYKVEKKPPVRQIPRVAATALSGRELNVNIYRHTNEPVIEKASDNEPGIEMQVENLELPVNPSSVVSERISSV
Sequence of UniProt P60893 (whole entry, looked up): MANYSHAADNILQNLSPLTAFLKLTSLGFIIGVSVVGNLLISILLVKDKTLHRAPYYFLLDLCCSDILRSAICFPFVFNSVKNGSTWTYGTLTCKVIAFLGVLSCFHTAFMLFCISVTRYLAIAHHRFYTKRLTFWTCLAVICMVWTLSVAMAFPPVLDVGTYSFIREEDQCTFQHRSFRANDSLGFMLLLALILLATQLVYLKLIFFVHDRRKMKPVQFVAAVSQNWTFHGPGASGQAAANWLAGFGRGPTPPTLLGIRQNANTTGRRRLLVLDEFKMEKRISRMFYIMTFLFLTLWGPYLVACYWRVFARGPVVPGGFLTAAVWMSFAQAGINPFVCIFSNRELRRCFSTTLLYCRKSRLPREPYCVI

`COc1ccc(N2C(=O)N(c3c(C)cccc3Cl)Cc3cnc(Nc4ccc(C5CCN(C)CC5)cc4OC)nc32)nc1` gave an inhibition of 19% (STE20-like serine/threonine-protein kinase (SLK, Homo sapiens, UniProt Q9H2G2); kinase activity; 0.5 µM).
`COc1cc(Nc2ncc(F)c(Nc3ccc4c(n3)NC(=O)C(C)(C)O4)n2)cc(OC)c1OC` has an inhibition of 99% (Inhibitor of nuclear factor kappa-B kinase subunit epsilon (IKBKE, Homo sapiens, UniProt Q14164); KINOMEscan; 10 µM, IKK-epsilon).
`Oc1ccc2c3c1O[C@H]1[C@@H](O)CC[C@@]4(O)[C@@H](C2)N(CC2CCC2)CC[C@]314` — result for “log2 fold change”: -0.55 (KISS1R; receptor activation, TANGO luminescence; concentration not given, unconfirmed screen; reference: vehicle control).
For `C[C@H]1CN(c2n[nH]c3nc(N[C@H]4CC[C@H](NS(=O)(=O)CCC(F)(F)F)CC4)ncc23)CCO1`, the relative abundance was 1.12 (DNA damage-binding protein 1 (DDB1, Homo sapiens, UniProt Q16531); inhibitor, Kinobeads competition profiling; 0.16 µM; reference: vehicle).
`O=S(=O)(F)Oc1cc(C(F)(F)F)cc(C(F)(F)F)c1`: “pseudo-first-order rate constant” 1.2 h⁻¹ (reaction with N-acetyl-lysine, HPLC-MS; pH 10.2, with: N-α-acetyl-lysine).
With `CN1CCN(c2cc(-c3ccncc3)c(-c3ccc4ccccc4c3)nn2)CC1` the inhibition was 31.3% (KISS1R; antagonist, FLIPR; 10 µM).
`O=C(c1ccc(Cl)cc1)N1CCN2C(=O)N(OC(=O)N3CCOc4ccccc43)C(=O)C2C1` (stereo not drawn) gave a peptide ratio of 0.9 and 0.79 and 0.74 and 0.81 and 0.93 and 0.95 and 0.77 (Platelet-activating factor acetylhydrolase IB subunit alpha1 (Homo sapiens, UniProt Q15102); MS-based ABPP; SW-620 conditioned medium; 10 µM, 1 h, 37 °C; reference: compound over DMSO, lower = more inhibition).
For `Cc1[nH]c2ccccc2c1-c1csc(-c2c[nH]c3ccccc23)n1`, “BARD1 binding at HPV ori” read “decreased” (differentiated W12E; CUT&RUN-qPCR; concentration not given; reference: untreated).
`[2H]c1c([2H])c([C@]2([2H])CCCN2C(=O)C(C)(C)Oc2ccc3cn[nH]c3c2)c([2H])c([2H])c1C([2H])([2H])[2H]` gave a remaining binding of 94% (Bone morphogenetic protein receptor type-2 (BMPR2, Homo sapiens, UniProt Q13873); KINOMEscan; 1 µM; reference: DMSO control).
For `CC[C@H](C)[C@H](NC(=O)CNC(=O)[C@@H](N)CCCCN)C(=O)N[C@@H](CC(C)C)C(=O)N[C@@H](CCCCN)C(=O)N[C@@H](CCCNC(=N)N)C(=O)N[C@@H](CCC(=O)O)C(=O)N[C@@H](CCCCN)C(=O)N[C@@H](CCCNC(=N)N)C(=O)N[C@@H](CC(C)C)C(=O)N[C@@H](CCCNC(=N)N)C(=O)N[C@@H](CCCNC(=N)N)C(=O)N[C@@H](CCCCN)C(=O)N[C@@H](CC(N)=O)C(=O)N[C@H](C(=O)N[C@@H](Cc1c[nH]cn1)C(=O)N[C@@H](Cc1c[nH]c2ccccc12)C(=O)N1CCC[C@H]1C(=O)N[C@@H](CCC(=O)O)C(=O)N[C@@H](CCC(=O)O)C(=O)NCC(=O)N[C@@H](CCCCN)C(=O)N[C@@H](CC(C)C)C(=O)N[C@@H](CCCNC(=N)N)C(=O)N[C@@H](CCC(=O)O)C(=O)N[C@@H](Cc1ccccc1)C(=O)N[C@@H](Cc1ccccc1)C(=O)N[C@@H](Cc1ccccc1)C(=O)N[C@@H](Cc1ccccc1)C(=O)N[C@@H](CCC(=O)O)C(=O)N[C@@H](CC(C)C)C(=O)N[C@@H](CC(=O)O)C(=O)N[C@@H](CCC(=O)O)C(=O)N[C@@H](C)C(=O)N[C@@H](CCC(=O)O)C(=O)N[C@@H](CCCNC(=N)N)C(=O)N[C@H](C(=O)N[C@@H](CC(N)=O)C(=O)N[C@H](C(=O)O)C(C)C)C(C)C)C(C)C`, “log2 fold change” read -0.21 (HeLa and HEK-293T cells; phosphatase bead binding, competitive inhibitor, PIB pulldown iBAQ LC-MS/MS, measured: STRN4; concentration not given; reference: untreated control).
With `O=C(N[C@@H]1CCC2C3Cc4ccc(O)c5c4[C@@]2(CCN3CC2CC2)C1O5)c1cccc(I)c1` (stereo partly drawn) the selectivity ratio was 30 fold (Kappa-type opioid receptor (Oprk1, Mus musculus, UniProt P33534); reference: mouse DOR over KOR potency).
For `COc1cc(CCNC(C)c2ccccc2O)c(OC)cc1C#N` (single isomer, unassigned; (+)), the Emax was 109% (5-hydroxytryptamine receptor 2C (HTR2C, Homo sapiens, UniProt P28335); Gq dissociation, agonist, BRET; reference: 5-HT).
The inhibition of `CN[C@@]1(c2ccccc2Cl)CCCCC1=O` is reported as 18% (5-hydroxytryptamine receptor 1A (HTR1A, Homo sapiens, UniProt P08908); radioligand binding, agonist, radioligand displacement; 30 µM).
`CCCc1cc(O)c2c(c1)OC(C)(C)[C@@H]1CCC(C)=C[C@@H]21` has a Hill coefficient of 1.03 ± 0.09 (Transient receptor potential cation channel subfamily V member 3 (TRPV3, Homo sapiens, UniProt Q8NET8, L557A); calcium uptake, TRPV3 modulator, Fura-2 AM calcium imaging).
Under “log2 fold change”, `COc1cc(N)c(Cl)cc1C(=O)NC1CN2CCC1CC2` (stereo not drawn) is recorded as -0.427 (Probable G-protein coupled receptor 85 (GPR85, Homo sapiens, UniProt P60893); β-arrestin recruitment, TANGO luminescence, measured: GPR85; concentration not given; reference: basal luminescence).

A few entries again:
For `Cc1[nH]c2ccccc2c1-c1csc(-c2c[nH]c3ccccc23)n1`, “BARD1 binding at HPV ori” read “decreased” (differentiated W12E; CUT&RUN-qPCR; concentration not given; reference: untreated).
`CCCc1cc(O)c2c(c1)OC(C)(C)[C@@H]1CCC(C)=C[C@@H]21` has a Hill coefficient of 1.03 ± 0.09 (Transient receptor potential cation channel subfamily V member 3 (TRPV3, Homo sapiens, UniProt Q8NET8, L557A); calcium uptake, TRPV3 modulator, Fura-2 AM calcium imaging).
